Results pooled from the literature.
Where no end group is shown, it is not given here. The star is where a group is joined.
Cell line: HeLa

Substance	test	setting	scale	quantity	result
CCn1c2ccccc2c2cc(C3CC(c4cc5cccc(OC)c5oc4=O)=NN3c3cccc(Cl)c3)ccc21 (stereo not drawn)	propidium iodide staining	IC50, 24 h		cells in G0/G1 phase	75.1%
N=C(N)NCCC[C@@H]1NC(=O)[C@H](CCCNC(=N)N)NC(=O)[C@H](CCCNC(=N)N)NC(=O)[C@H](Cc2ccc3ccccc3c2)NC(=O)[C@H](Cc2ccccc2)NC(=O)[C@H](CCC(N)=O)NC(=O)[C@H](CCCNC(=N)N)NC1=O	flow cytometry	1 µM, 30 min, together with: dextran-Alexa488 100 µM	reference: untreated	dextran internalisation increase	15%
CN(C)C/C=C/C(=O)Nc1ccc(C(=O)Nc2cccc(Nc3cc(-c4c[nH]c5ccccc45)ncn3)c2)cc1	lysosome enlargement and autophagy block, immunofluorescence	18 h		lowest active concentration	250 nM
COc1cc2c(cc1OC)-c1c/c(=N\c3c(C)cc(C)cc3C)n(C)c(=O)n1CC2	rescue of DNMDP cytotoxicity	48 h, together with: DNMDP		EC50	< 0.001 µM
CC(C=NN=C(N)[S-])=NN=C(N)[S-].N.N.O=[N+]([O-])[O-].[Co+3]	cell growth or viability, MTT			IC50	~22 µM
Cc1ccc(C(=O)Nc2ccc(OS(=O)(=O)c3ccc(Cl)cc3)cc2)cc1	cell growth or viability, MTT	100 µM, 24 h		inhibition	32.4%
5FAM-KKSRRC(Farnesyl)VLS (N-5-FAM, S-farnesyl-Cys; 5FAM = O=C1OC2(c3ccc(O)cc3Oc3cc(O)ccc32)c2ccc(C(=O)*)cc21; Farnesyl = CC(C)=CCC/C(C)=C/CC/C(C)=C/C*)	flow cytometry	1 µM, 2 h, together with: rotenone 12 µM and 2-deoxyglucose 15 mM	reference: normal ATP conditions	cellular uptake	no effect
CC1(C(=O)Nc2ccc(OS(=O)(=O)c3ccccc3)cc2)c2ccccc2-c2ccccc21	cell growth or viability, MTT	100 µM, 24 h		inhibition	28.1%
Alexa Fluor 546-transferrin	live-cell confocal microscopy, measured: rhodamine-labelled compound with transferrin	1 µM, 30 min, 37 °C, together with: 25 nM Alexa488-transferrin		Pearson colocalization coefficient	0.905
N=C(N)NCCC[C@@H]1NC(=O)[C@H](CCCNC(=N)N)NC(=O)[C@H](CCCNC(=N)N)NC(=O)[C@H](Cc2ccc3ccccc3c2)NC(=O)[C@H](Cc2ccccc2)NC(=O)[C@H](CCC(N)=O)NC(=O)[C@H](CCCNC(=N)N)NC1=O	flow cytometry, measured: NF-labelled peptide	5 µM, 2 h, 37 °C, miniPEG linker	reference: compound set to 100%	cytosolic entry	100%
Cc1ccc(C(=O)Nc2ccc(OS(=O)(=O)c3ccccc3)cc2)cc1	cell growth or viability, MTT	100 µM, 24 h		inhibition	44.9%
CC[C@H](C)[C@H](NC(=O)[C@H](Cc1c[nH]cn1)NC(=O)[C@H](Cc1ccccc1)NC(=O)[C@H]1CSCc2ccccc2CSC[C@@H](NC(=O)[C@@H](NC(=O)c2cccnc2)C(C)C)C(=O)N[C@@H](CC(N)=O)C(=O)N[C@@H](C)C(=O)N1)C(=O)N[C@@H](Cc1c[nH]c2ccccc12)C(=O)N[C@@H](Cc1c[nH]cn1)C(N)=O	immunoblot p62 and LC3-II	concentration not given, 2 h, acidified Opti-MEM		autophagy induction	inactive

Some of these lines once more:
Substance	test	setting	scale	quantity	result
COc1cc2c(cc1OC)-c1c/c(=N\c3c(C)cc(C)cc3C)n(C)c(=O)n1CC2	rescue of DNMDP cytotoxicity	48 h, together with: DNMDP		EC50	< 0.001 µM
